Assay results collected from several papers.
Numbered parts are unrelated; each lists some results of a single study. Substitutions count along the parent as printed.

Study 1
Target: RNA binding protein fox-1 homolog 2, RRM domain, GST-SBP tag (RBFOX2, Homo sapiens, UniProt O43251-10, residues 100-194)
Technique: RNA Bind-n-Seq
Molecule type: RNA
Sample: in vitro
Tested at: 365 nM
Notes: natural RNA segment, single round, ends assumed
Reference: no-protein control
Reading: higher = stronger binding
Quantity: RBNS enrichment (R)
Constant ends, left off below: GGGAGUUCUACAGUCCGACGAUC … UGGAAUUCUCGGGUGCCAA
Construct (chain): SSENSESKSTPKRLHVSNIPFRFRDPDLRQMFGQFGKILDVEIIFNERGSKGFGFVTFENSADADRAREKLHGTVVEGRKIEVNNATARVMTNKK
UGGCACAGAUCUUUGUCCCAAGCCUUCCUACUAUUCUUGCCUUAUUCUUAGUAUGCGUUGCAUCGGGGAUUUUAGACCAGGCUGCCUCUGAAAUGGUUAUUUGCAGCCCA: 3.24
GUCAAGGUCACUGAGAGGAAUUUGUUUAGAUGCCCAGUUUAGAGUGAAUAGAUAUCUGCGGGGAACCUGGGGCAUUUUGGGGAACCCUGGGGUCUUUUACAGGUCAUGUU: 1.3
CGGUAAGGCUUAUUCAUGGUUCAUUGCCAGGAGCAGAUAUGCUUUUGAGAUCACUUUUAUUUUUGAAAUGGCCUUUGUUCAUUGUAUUGUGAUCCAAUAACACUUUGUAU: 0.654
CAGUAGUAAAAUUUUCCUGUCCACUGUGAAUCAAAGCCUGAGUCACUCUAUUUAACCUUGGACACACUAAUAAGGUUUUAUUUUGAUUGUGUUCGUUUCCCCCCCCCCAA: 0.63
GGCACAGGGUCCAUCCCGCCAUGGCAACAGCAGCAGGCGGCUGCCGCAGCUUCUCCAGGAACCCCUCAGAUGCAAGGCAACCCCACUAUGGUGCCCCUGCCCCCCGGGGU: 0.215
AAAACUAAUCAAUGGCACACAGGGCCAGGUGUGGCCCUGUGAGGCAAAGGAUAAUGUCACCUCAGGACCAAGGUGGAAACUUACAGCUGAAUCCAGGGCUUACUAAGUAG: 0.229
UGAGUGUUUCCACUCAAAAUAUGUCAACUUAAAAAAAAAUAGGCCCUUUCAUAAAAACCAAACUGUAGCAAGAUGCAAAUGCAUGGCAAAUCCUGUCGGUCUCCAGUUGG: 0.971
CACCUAGAUUGUAAGCUCCCUGGGCCAGGACUUCAGCCUGCCUCCGAGGGUCCCCUGUGGCACCUAGCAUGGUGCACAGCACAUUAGAAGUGCUCAAAAACAUCUGAUGA: 1.59
GGAGGACGUGUUGCCUCAGAACAUGGGGACUUCCUAGAGGUCUGCUGAGCCCACAGAAAGAGCCAGGAAAGCAUUAACAGAAAAGCCUGUCAGGACAUGUCCACCACUGG: 0.613
CUGUGUCAUCAACUUAUCCUAGUACCUCAGUGUUCAUUCCUGUUACCUGCAUAUCUUCUUAAAAGAAAUAGCUGUUAUUAAUGCCUUUUUGUUUUCCAUUGAGUGUACAC: 0.462
CAACCUUUUAGCUGUUGCAAAUCAGAAGGAGCCAGAGAAGCAGGCAGUCUCAUGCAUGAGAGGUUACCCUUCAGGAUGACAGAGCUGAGGGUCUUUGUAGGAGUUGCUCU: 12.1
UGGUGACCACCUAUGCUUCAGUGCAUUUUCUAAACAAUUUCUCAAACUGAUCUGCUCCCGGGUGCUUUCUUACCACCAUCUCUGGUGACUUAGCCUCAAAUUGGUGUUUU: 0.411

Study 2
Target: UBE2Z UBC core domain (UniProt Q9H832)
Technique: yeast two-hybrid
Sample: yeast
Notes: mostly zero background
Reference: not given
Reading: higher = stronger interaction
Quantity: lacZ reporter activity
B1: TRIM38 RING domain (UniProt O00635); chain STKKMMEEATCSICLSLMTNPVSINCGHSYCHLCITDFFKNPSQKQLRQETFCCPQCRAPFHMDSLRP
B2: ANKIB1 RING domain (UniProt Q9P2G1); chain LSPGDLDTSLCDICMCSISVFEDPVDMPCGHDFCRGCWESFLNLKIQEGEAHNIFCPAYDCFQLVPVDIIE
B3: RNF149 RING domain (UniProt Q8NC42); chain EKGIDVDAENCAVCIENFKVKDIIRILPCKHIFHRICIDPWLLDHRTCPMCKLDVIKALGYW
B4: PEX2 RING domain (UniProt P28328); chain DNTLATSGKECALCGEWPTMPHTIGCEHIFCYFCAKSSFLFDVYFTCPKCGTEVHSLQPLK
B5: TRIM3 RING domain (UniProt O75382); chain VQPMDKQFLVCSICLDRYQCPKVLPCLHTFCERCLQNYIPAQSLTLSCPVCRQTSILPEQGV
B6: RNF43 RING domain (UniProt Q68DV7); chain SGSSCSSAPVCAICLEEFSEGQELRVISCLHEFHRNCVDPWLHQHRTCPLCMFNITEGDSFS
B7: TRIM15 RING domain (UniProt Q9C019); chain SLKVVHELPACTLCAGPLEDAVTIPCGHTFCRLCLPALSQMGAQSSGKILLCPLCQEEEQAETPMA
B8: NSMCE1 RING domain (UniProt Q8WV22); chain RETYPDAVKICNICHSLLIQGQSCETCGIRMHLPCVAKYFQSNAEPRCPHCNDYWPHEIPKV
B9: RNF4 RING domain (UniProt P78317); chain TGLRPSGTVSCPICMDGYSEIVQNGRLIVSTECGHVFCSQCLRDSLKNANTCPTCRKKINHKRYHP
B10: RNF32 RING domain (UniProt Q9H0A6); chain SLLQGDSVQPCPICKEEFELRPQVLLSCSHVFHKACLQAFEKFTNKKTCPLCRKNQYQTRVIH
Residues (chain): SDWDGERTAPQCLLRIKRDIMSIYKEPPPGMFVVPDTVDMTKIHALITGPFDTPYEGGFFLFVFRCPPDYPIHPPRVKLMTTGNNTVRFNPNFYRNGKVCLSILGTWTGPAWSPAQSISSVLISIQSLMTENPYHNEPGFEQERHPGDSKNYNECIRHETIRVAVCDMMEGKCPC
B1 (TRIM38 RING domain): 0
B2 (ANKIB1 RING domain): 0
MANWVFCNRCFQPPHRTSCFSLTNCGHVYCDACLGKGKKNECLICKAPCRTVLLSK (RNF212 RING domain (UniProt Q495C1)): 0
B3 (RNF149 RING domain): 0
B4 (PEX2 RING domain): 0
B5 (TRIM3 RING domain): 0
FLKKLEQSFMCVCCQELVYQPVTTECFHNVCKDCLQRSFKAQVFSCPACRHDLGQNYIMI (UHRF2 RING domain (UniProt Q96PU4)): 0
B6 (RNF43 RING domain): 0
B7 (TRIM15 RING domain): 0
B8 (NSMCE1 RING domain): 0
KIKDLNEHIVCCLCAGYFVDATTITECLHTFCKSCIVKYLQTSKYCPMCNIKIHETQPLL (PCGF1 RING domain (UniProt Q9BSM1)): 0
B9 (RNF4 RING domain): 3480
KRQCSDVDDICSICQAEFQKPILLICQHIFCEECMTLWFNREKTCPLCRTVISDHINKW (RNFT1 RING domain (UniProt Q5M7Z0)): 2440
B10 (RNF32 RING domain): 0

Study 3
Target: Histone acetyltransferase KAT6A, both winged helices, GST fusion (KAT6A, Homo sapiens, UniProt Q92794, residues 1-181)
Technique: protein binding microarray
Molecule type: double-stranded DNA, one strand shown
Sample: in vitro
Tested at: not given
Notes: 8-mer, flanks averaged, mean of 2 arrays, mostly near background
Reference: not given
Reading: higher = stronger binding
Quantity: E-score
Target sequence (chain): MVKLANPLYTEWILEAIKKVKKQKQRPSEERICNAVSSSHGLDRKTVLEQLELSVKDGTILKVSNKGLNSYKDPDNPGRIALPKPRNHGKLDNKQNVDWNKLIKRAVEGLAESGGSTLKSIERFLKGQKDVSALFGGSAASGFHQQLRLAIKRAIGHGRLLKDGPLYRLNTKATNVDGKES
GAGCACCA: -0.171
ACAACCCA: -0.162
ACAAGTCC: -0.0496
ATTGTACC: -0.0228
ACTTTAGG: -0.174
GATCGAAA: 0.0947
CGGGACAA: 0.192
GGATTAGA: -0.0813
CACTAGAC: 0.0135
ATATCACA: -0.114
GGCTCCTA: -0.0782
CGAGCATC: -0.0292
AGTGCGCC: 0.23
GCAGTTCC: 0.103
AACGCTGC: 0.038
AAAAGAGA: -0.139

Study 4
Target: CCND2, cyclin fold, Cln2 fusion (human)
Technique: yeast growth competition, sequencing
Sample: yeast
Notes: weak parent motif
Reference: not given
Reading: higher = stronger binding
Quantity: normalised enrichment score
Parent: CDKN1A docking peptide (human); SKACRRLFGPVDS
SKNCRRLFGPVDS [A3N]: -0.267
SAACRRLFGPVDS [K2A]: 0.401
SKACRRLFGPVQS [D12Q]: -0.1
SKACRRLAGPVDS [F8A]: -0.112
SKACRRHFGPVDS [L7H]: 0.176
SKACRRLFGKVDS [P10K]: -0.0745
SKAERRLFGPVDS [C4E]: -0.0946
SKACRRLFGNVDS [P10N]: 0.147
SKACRRLEGPVDS [F8E]: -0.454
SKKCRRLFGPVDS [A3K]: 0.478
SKYCRRLFGPVDS [A3Y]: -0.383
SKACRRLFGPHDS [V11H]: 0.011
SKACRNLFGPVDS [R6N]: 0.408
SKACRRLFGLVDS [P10L]: -0.287
SKACLRLFGPVDS [R5L]: -0.103

Study 5
Target: Phosphate system positive regulatory protein PHO4, full length, GST-tagged (PHO4, Saccharomyces cerevisiae, UniProt P07270, residues 1-312)
Technique: competition protein-binding microarray
Molecule type: double-stranded DNA, one strand shown
Sample: in vitro
Tested at: 2 µM
Notes: whole 60-bp probe, lowest competitor level
Together with: Cbf1 competitor, 0.05 µM
Reading: higher = stronger binding
Quantity: fluorescence intensity
Constant ends, left off below: … GTCTTGATTCGCTTGACGCTGCTG
Residues (chain): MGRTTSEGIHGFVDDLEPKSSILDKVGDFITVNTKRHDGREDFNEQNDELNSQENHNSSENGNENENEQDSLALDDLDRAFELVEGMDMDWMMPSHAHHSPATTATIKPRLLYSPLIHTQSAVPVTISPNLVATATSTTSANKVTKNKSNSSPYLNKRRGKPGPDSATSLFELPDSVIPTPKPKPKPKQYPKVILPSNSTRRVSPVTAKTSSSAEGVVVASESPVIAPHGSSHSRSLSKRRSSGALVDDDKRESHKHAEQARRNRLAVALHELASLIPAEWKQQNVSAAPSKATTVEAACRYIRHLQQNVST
CGGGGTTAAGTTTTTCACGTGCAGTGCTTGCAGCAG: 12900 a.u.
CCTCTTTACATTTGGCATGCGTTGACACTATAGATT: 8930 a.u.
CTAACGAAGGTTTTTCACGTGTTCTACAAGCCAAGT: 14700 a.u.
CGGGGTTAAGTTTGCAGGGTGGGTGGCTTGCAGCAG: 5180 a.u.
CATACCCAACCTTGTCACGCAACTTAAGATATTTGT: 5960 a.u.
CGTCCTAGTGATTTTCACGTGCTTTCCATGAGGAAG: 14200 a.u.
CTAACGAAGGTTTGACGTGTGGGTGACAAGCCAAGT: 5380 a.u.
CAAACATAAAAGTCGTTCGTGATGGTGAGTTACTTA: 4300 a.u.
TGCGCAACAACTTGTCACGATACTTTATGTCTAGAA: 4470 a.u.
TGATTGCCTCCGACGCTCGTGACGGGTTCCTCCGAA: 6290 a.u.
CTTCTGTAAATTTGGACCGTGGGTGGACGCGCCCCG: 7450 a.u.
ACCCTTTTTCCTTGCCACGTTTTCACTCAGATCTAA: 13500 a.u.
AACAAGAAGATCCATCACGTGCTTTGAAAAAAAATA: 17800 a.u.
AAAGCGGTAATTTGCCGCGTGGGTGCAGATATCTAT: 11000 a.u.
CGGGGTTAAGTTTTCCACGTGTTTTGCTTGCAGCAG: 15500 a.u.
CTTCTGTAAATTTGTAAGGTGGGTGGACGCGCCCCG: 4850 a.u.
CGGGGTTAAGTTTGCGCGGTGGGTGGCTTGCAGCAG: 5090 a.u.
CGCGGAATGACTGGACCCGTGGGTAATCGCAGGGGA: 8290 a.u.
AGGCCAATGCTGCTAAGCGTGCTAAAGCCAAGGCCC: 7270 a.u.
CCACCGTTTGAGAGTGGTGTGACAGGACGCCCAAGA: 4270 a.u.
TGTTAATTAAACCATCACGGCTCATTCATTTGAGTT: 4500 a.u.

Some of these lines once more (study 3):
GGATTAGA: -0.0813
CACTAGAC: 0.0135
ATATCACA: -0.114
GGCTCCTA: -0.0782
CGAGCATC: -0.0292
AGTGCGCC: 0.23
GCAGTTCC: 0.103
